Measured values collected from several papers.
Every numbered part comes from another study and shows a few of its results, in no order. Positions count from the first letter of the parent shown.

Block 1
Target: CREBL2, bZIP domain (human)
Technique: DHFR protein complementation
Matrix: yeast
Notes: single substitutions, most at no-binding floor
Relative to: wild-type JUN-FOS pair
Direction: higher = stronger binding
Starting sequence: JUN, bZIP domain (human); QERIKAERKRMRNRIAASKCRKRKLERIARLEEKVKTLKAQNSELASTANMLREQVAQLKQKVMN; partner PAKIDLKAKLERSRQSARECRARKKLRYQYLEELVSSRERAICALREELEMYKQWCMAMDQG
Variant	binding fitness [natural log]
Q55L	-1.57
K39E	-1.44
S43C	-1.52
E32P	-1.51
M51S	-1.28
K39M	-1.4
L52C	-1.43
N42L	-1.48
E33V	-1.47
K39I	-1.43
V56R	-1.54
E33I	-1.43
I28R	-1.45
I28T	-1.45
M51D	-1.23
E32S	-1.56
L45R	-1.44
L31V	-1.31
L38H	-1.59
V35R	-1.45
E33C	-1.38
A40Y	-1.45

Block 2
Target: ABI1, truncated, D143A, DHFR fusion (Arabidopsis thaliana)
Technique: DHFR PCA, deep sequencing
Matrix: yeast
Notes: methotrexate growth selection, single substitutions
Together with: (+)-ABA 200 µM
Relative to: wild-type fitted maximum
Direction: higher = stronger binding
Starting sequence: PYL1, truncated, DHFR fusion (Arabidopsis thaliana); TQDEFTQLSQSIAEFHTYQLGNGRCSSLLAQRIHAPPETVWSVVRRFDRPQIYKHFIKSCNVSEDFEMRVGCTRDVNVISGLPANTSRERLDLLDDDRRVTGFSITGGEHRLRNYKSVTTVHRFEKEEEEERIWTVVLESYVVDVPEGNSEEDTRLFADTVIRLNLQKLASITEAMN; partner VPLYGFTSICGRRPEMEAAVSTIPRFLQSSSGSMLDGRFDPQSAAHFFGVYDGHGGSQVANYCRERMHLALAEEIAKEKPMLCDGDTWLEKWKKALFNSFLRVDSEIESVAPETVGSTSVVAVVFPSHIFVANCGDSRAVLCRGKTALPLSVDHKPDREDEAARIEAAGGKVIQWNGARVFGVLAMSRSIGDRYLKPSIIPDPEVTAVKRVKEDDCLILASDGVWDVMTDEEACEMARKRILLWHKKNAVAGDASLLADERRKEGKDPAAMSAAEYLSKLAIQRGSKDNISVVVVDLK
Variant	relative binding score [%]
G102Y	9.26
R132A	113
V40G	-11.7
I57Q	50.8
E151W	85.4
L166N	12.4
E152F	89.3
S63Y	88.5
S11I	90.4
P83F	19.6
G71P	66.2
E89P	-5.37
V43L	93.6
G81C	67
S63G	103
F157N	-2.02
N114K	77.8
I79K	95.5
E4S	87.2
G102N	2.49
R98C	94.5
E38R	75.9
E125N	102
D144T	78.2
S171P	22.9

Block 3
Target: Sal-like protein 4, full length isoform B (SALL4, Homo sapiens, UniProt Q9UJQ4-2, residues 1-616)
Technique: universal PBM
Molecule type: double-stranded DNA, one strand shown
Matrix: in vitro
Tested at: not given
Notes: 8-mer, flanks averaged, mean of replicates
Direction: higher = stronger binding
Target sequence (chain): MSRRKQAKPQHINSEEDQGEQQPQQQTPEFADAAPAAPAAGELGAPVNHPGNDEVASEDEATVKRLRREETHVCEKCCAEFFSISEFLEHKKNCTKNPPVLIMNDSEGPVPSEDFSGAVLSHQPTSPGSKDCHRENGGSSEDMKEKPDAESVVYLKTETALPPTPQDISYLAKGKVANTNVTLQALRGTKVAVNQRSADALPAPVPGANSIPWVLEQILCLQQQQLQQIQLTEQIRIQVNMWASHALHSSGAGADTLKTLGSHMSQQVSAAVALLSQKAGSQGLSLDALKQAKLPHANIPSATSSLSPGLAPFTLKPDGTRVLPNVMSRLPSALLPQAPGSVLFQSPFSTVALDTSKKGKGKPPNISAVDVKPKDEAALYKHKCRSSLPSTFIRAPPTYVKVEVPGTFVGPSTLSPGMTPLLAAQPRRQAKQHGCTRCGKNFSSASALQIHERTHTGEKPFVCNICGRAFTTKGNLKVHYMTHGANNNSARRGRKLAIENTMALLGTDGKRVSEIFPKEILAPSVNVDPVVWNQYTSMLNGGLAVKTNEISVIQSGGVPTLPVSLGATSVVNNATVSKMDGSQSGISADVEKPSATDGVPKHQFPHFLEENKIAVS
Strand	E-score
AGGCAGCG	-0.236
AAACACCG	0.0395
TACGCGTA	0.0253
CCAAGACA	0.0526
GAGATGCA	-0.08
AGGTCATC	-0.155
ACCGCACG	-0.203
AACCACCG	-0.144
GATGTGAA	0.153
GTCAGTTA	0.072
CAACGAGG	-0.0238
CGATACGC	-0.0318
CCTGGGAG	-0.347
ATAGTGGA	0.171
CTACTCGC	-0.155
CTTTCGAA	0.0699
CAGCCAAG	-0.135
GGGAAAGA	-0.164
CGTTAAAC	0.0864
AAAAACGA	0.238
TATTGCGA	0.138
TACCGAAA	0.119
GCACTGCC	-0.0974
AGAACCTG	-0.162
AGGCCAGG	-0.25

Block 4
Target: TAR DNA-binding protein 43, full length, His tag (TARDBP, Homo sapiens, UniProt Q13148, residues 1-414)
Technique: RNA Bind-n-Seq
Molecule type: RNA
Matrix: in vitro
Tested at: 20 nM
Notes: 6-mer, flanks averaged, single round
Together with: 150 mM KCl
Relative to: input library
Direction: higher = stronger binding
Strand	6-mer enrichment (R)
UGCUGU	0.796
CGAAUG	0.992
CGAUUG	0.756
CCUGAC	0.666
CGGGCC	1.95
UUCGUU	0.547
GGUGUU	1.31
UUGGCG	1.29
GCUAAU	0.669
CGAACG	0.896
AUUAAC	0.582
CAGUGG	1.69
CUUUUG	0.673
GUUGCG	1.44
CACCAC	0.716
AUUCAU	0.553
CUUUAC	0.572
CACCGU	0.662
GUUAUA	0.651
UGUGGC	1.42
UUAGGC	0.746
UUGCGG	1.5

Block 5
Target: CCNB1, cyclin fold, Cln2 fusion (human)
Technique: yeast growth competition, sequencing
Matrix: yeast
Notes: weak parent motif
Relative to: not given
Direction: higher = stronger binding
Starting sequence: CDC6 docking peptide (human); TLKGRRLVFDNQL
Variant	normalised enrichment score
L7F	-0.0294
V8S	0.8
L13V	0.132
K3W	-0.00582
N11S	0.242
F9V	-0.577
L2W	-0.0568
F9D	0.436
D10K	0.233
Q12N	0.139
K3H	-0.144
L2D	-0.268
R6T	-0.00399
L7D	0.0453
N11Q	-0.198
V8T	0.942
T1F	-0.646
K3N	-0.0662
T1C	-0.219
N11T	0.498
L13M	0.754
L7G	0.524
R5G	-0.0422
L2Y	0.0767
K3C	0.761

Excerpt of the above (block 4):
Strand	6-mer enrichment (R)
CGAAUG	0.992
CGAUUG	0.756
CCUGAC	0.666
CGGGCC	1.95
UUCGUU	0.547
GGUGUU	1.31
UUGGCG	1.29
GCUAAU	0.669
CGAACG	0.896
AUUAAC	0.582
CAGUGG	1.69
CUUUUG	0.673
GUUGCG	1.44
CACCAC	0.716
AUUCAU	0.553
CUUUAC	0.572
CACCGU	0.662
GUUAUA	0.651
UGUGGC	1.42
UUAGGC	0.746
